Measured values from different studies.
Numbered parts are unrelated; each lists some results of a single study.

Study 1
Target: RING finger protein unkempt homolog, zinc fingers 1-6, GST-SBP tag (UNK, Homo sapiens, UniProt Q9C0B0, residues 30-357)
Chain of UniProt Q9C0B0 (30-357, looked up): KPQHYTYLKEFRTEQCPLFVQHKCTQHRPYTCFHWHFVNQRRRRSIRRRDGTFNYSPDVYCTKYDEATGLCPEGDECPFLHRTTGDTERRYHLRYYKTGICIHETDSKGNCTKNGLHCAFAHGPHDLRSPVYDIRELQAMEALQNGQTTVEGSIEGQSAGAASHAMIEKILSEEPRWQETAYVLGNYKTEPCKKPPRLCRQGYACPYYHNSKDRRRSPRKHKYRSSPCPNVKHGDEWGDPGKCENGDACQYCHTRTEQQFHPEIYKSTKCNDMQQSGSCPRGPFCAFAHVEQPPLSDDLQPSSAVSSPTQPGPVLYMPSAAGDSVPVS
Method: RNA Bind-n-Seq
Form: RNA
Matrix: in vitro
Concentration: not given
Setting: RNA with constant flanks, human and mouse sites, ends assumed
Reference: input RNA pool
Reading: higher = stronger binding
Shared flanks, not repeated: GGGAGUUCUACAGUCCGACGAUC … CAACAGAGGAUUGAGCAUCA
`UUUCCUUCUUUUGGAAGUGGAUUUCCUGCUUUUGAUACAGGCUUCACUCCAUUUGGGUCACUAGGUCAUGGGGGUCUCACUUCAUUUUCUUCAACGUCAUUUGGCGGCAGUGGAAUGGGC` has a bound/input enrichment of 0.166 ratio.
For `UCUUGGGCAGAAGAGACAAACUCAAUGUUAAAAUCUCUAGGAGUGACCACGAAGUUUCAUAGUUUUCCAAAUGUUUACCAUGAGCUAAGCAAAACUGAGUUAGACAUAUUGAAGUUAUGG`, the bound/input enrichment was 0.291 ratio.
`AGCCUCAAGUUCUCCAGCUCUGGGGACUUCCUGGUGGCUGGGGUAGGGCAGGAGCACAGGCUUGGCCGAUGGUGGAGAAUCAAAGAGGCUCGGAAUUCUGUCUGCAUCAUCCCACUCCGC` gave a bound/input enrichment of 0.132 ratio.
The bound/input enrichment of `AUAGAGAGAACCCUUCAAAUUCAGAAAGCUCAUGGUGACCACAUGGCUUCCUCUAGAAAUAAUUCUGUAUCUGGACUAUCAGUCAAAUCAAAAAAUAAUACCAAACAAAAGCUUCCUGUG` is reported as 1.37 ratio.
For `AUGCUCCGCCAGAUCAUCGGUCAGGCCAAGAAGCAUCCGAGCUUGAUCCCCCUCUUUGUAUUUAUUGGAACUGGAGCUACUGGAGCAACACUGUAUCUCUUGCGUCUGGCAUUGUUCAAU`, the bound/input enrichment was 0.121 ratio.
With `AAACUAACACUCUGUAAUUUUUCUUUUAUGUCUUAUUUUCCAAGAGUCCUCCAUUUUUUGCACCCCCUCACCGCCAACUCUGUUAUUCAGUAGAGAGAAGUGUACGGCUUUCUGAUUGGU` the bound/input enrichment was 0.951 ratio.
With `AAUAAGCAUGUUAUGUAUAUUGUCUCGUGUUUUUAUUUUUACACCAUAUUGUAUUACACUUUUAGUAUUCACCAGCAUAAUCACUGUCUGCCUAAAAUAUGCAACUCUUUGCAUUACAAU` the bound/input enrichment was 3.32 ratio.
`UGCUUUAUGUGGUAGAAAGCAGAUUUAUGGUUUAAUACUUGUGUCUUCAUGGCACCUCGUUAGUUUCCACAGUAAAAUGAUAUUUGGUUGCAGGAAAGGCUCCUGCAUCUGGUACAUGGA` gave a bound/input enrichment of 0.633 ratio.
For `UAACCUUAACAAACGGAUCAGCUAUCUCUACAAACACUUUAACCGACAUGGGAAGUACAGAUAGGACGGGAAAUGUGUCACCCUGGAGAAGGGGAACAGGACUUAUCCCAGCAAGGAGAG`, the bound/input enrichment was 0.202 ratio.
The bound/input enrichment of `GAAGACGGCGACUGUACAUUAUCUCACUUAGAGAAUAUGAAAAUCAUUUUGUUUUGAAGCUAGGUAUUAAACUGGAGUAGCUAUUACGUUCUUGAAAACUGGGGCAGGUGUGCCCUUGAC` is reported as 33.7 ratio.
`GAGGCCCUGGCCAGCCCCCAGAUCGUAGCAUCGUUCACCUCUCAGUCUGUGGAUCAGUCUAAAGUGUUUGUGAAGGUGUUUACUGAAAUCGACCGGAUGCCCCAGCUCCUUGCAUACUAC` has a bound/input enrichment of 0.213 ratio.

Study 2
Target: Ras GTPase-activating protein-binding protein 1, full length (G3BP1, Homo sapiens, UniProt Q13283)
Chain of UniProt Q13283 (whole entry, looked up): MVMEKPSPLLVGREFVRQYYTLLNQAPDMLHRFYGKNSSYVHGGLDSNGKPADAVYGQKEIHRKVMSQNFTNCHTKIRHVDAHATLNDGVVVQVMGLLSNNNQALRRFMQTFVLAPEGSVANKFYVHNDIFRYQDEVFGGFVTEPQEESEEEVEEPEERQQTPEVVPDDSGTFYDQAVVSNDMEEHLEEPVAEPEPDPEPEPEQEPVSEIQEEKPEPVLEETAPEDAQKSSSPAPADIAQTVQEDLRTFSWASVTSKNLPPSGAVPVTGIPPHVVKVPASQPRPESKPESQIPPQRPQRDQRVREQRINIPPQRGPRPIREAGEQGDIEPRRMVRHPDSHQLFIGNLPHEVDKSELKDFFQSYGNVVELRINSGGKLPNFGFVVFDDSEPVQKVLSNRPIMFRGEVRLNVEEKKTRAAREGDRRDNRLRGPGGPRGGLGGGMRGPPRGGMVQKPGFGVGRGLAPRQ
Method: RNA Bind-n-Seq
Form: RNA
Matrix: in vitro
Concentration: 200 nM
Setting: whole 134-nt RNA, ends assumed
With: 150 mM LiCl
Reference: input library
Reading: higher = stronger binding
All molecules: 7-deaza-guanosine replaces G
Shared flanks, not repeated: GGGAGUUCUACAGUCCGACGAUC … UGGAAUUCUCGGGUGUCAAGG
`ACCAUGCAGGUGGGCAUCUUUGGGAAGUGGGGCAAGGGGGGGACAGGGAGGGGGGUAACACUUUGGGAACAGGUGGUCCCAGGUCGUUUC` has a log2 enrichment of -0.0524.
For `UCAAGUCCUGUGCUACACAUCGUAUGUACCGAAUCGGGAGGGUGGGUUUUUGGGAAAGUAUUAUGUUACGCCGUUCGGAUCUGCACUUCC`, the log2 enrichment was -0.312.
For `UAACUUUAGAAGAGGAUCUGAUGGAUAUGGCAGUGGACGUGGAUUUGGGGAUGGCUAUAAUGGGUAUGGAGGAGGACCUGGAGGUGGCAA`, the log2 enrichment was -0.137.
`ACAAUGCAGGUGGGCAUCUUUGGGAAGUGGGGCAAGGGGGGGAUAGGGAGGGGGGUAACACUUUGGGAACAGGUGGUCCCAGGUCGUUUC` has a log2 enrichment of 0.239.
`UCAAGUCCUGUGCUACACAUCGUAUGUACCGAAUCGGGGAAGGAAGGGGAAGGGGAAAGUAUUAUGUUACGCCGUUCGGAUCUGCACUUC` gave a log2 enrichment of -0.0164.
For `UUUAAGAGCAGCCAGGGAGAUAGUGGCGUUGACUUGAGUGCCGAGUCUCGGGAGUCGUCUGCGACCUCCUCGCAGCGCAGCUCCCCAUAU`, the log2 enrichment was 1.42.
With `AGUCCUGUGCUACACAUCGUAUGUACCGAAUCGGGCCCCGGGCCCCGGGGCCCCGGGAAAGUAUUAUGUUACGCCGUUCGGAUCUGCACU` the log2 enrichment was -1.07.
With `CUCAAGUCCUGUGCUACACAUCGUAUGUACCGAAUCGGAAAAAGGUGGAAAGGAAAGUAUUAUGUUACGCCGUUCGGAUCUGCACUUCCA` the log2 enrichment was 0.093.
With `GGUAGCAAGAGCUCCAGAGAGAAGUCGAGGAAGAGAGAGACGGGGUCAGAGAGAGCGCGCGGGCGUGCGAGCAGCGAAAGCGACAGGGGC` the log2 enrichment was 0.773.
For `CCUGUGCUACACAUCGUAUGUACCGAAUCGGGUUUUUUUGGUUUUUUUGGUUUUUUUGGGGAAAGUAUUAUGUUACGCCGUUCGGAUCUG`, the log2 enrichment was 0.192.
For `GUCCUGUGCUACACAUCGUAUGUACCGAAUCAAACCCAAACCCCCCCAAAUUUUUAAAAAAGUAUUAUGUUACGCCGUUCGGAUCUGCAC`, the log2 enrichment was 0.909.

Study 3
Target: Histone acetyltransferase KAT6A, both winged helices, GST fusion (KAT6A, Homo sapiens, UniProt Q92794, residues 1-181)
Method: protein binding microarray
Form: double-stranded DNA, one strand shown
Matrix: in vitro
Concentration: not given
Setting: 8-mer, flanks averaged, mean of 2 arrays, mostly near background
Reference: not given
Reading: higher = stronger binding
Residues (chain): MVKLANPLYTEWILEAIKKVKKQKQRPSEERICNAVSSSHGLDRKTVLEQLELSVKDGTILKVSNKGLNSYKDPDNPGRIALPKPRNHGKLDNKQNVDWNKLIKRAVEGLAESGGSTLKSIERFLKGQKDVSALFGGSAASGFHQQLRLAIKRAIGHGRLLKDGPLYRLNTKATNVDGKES
The E-score of `CCAAACGG` is reported as 0.152.
With `ATGGTCTA` the E-score was -0.132.
`TTACCGAA` gave an E-score of 0.00068.
`ACTAGGCG` has an E-score of 0.0998.
`CTTACATA` has an E-score of -0.109.
`ATGAGTAC` has an E-score of 0.0267.
`GGGGGTAC` gave an E-score of -0.0217.
`CCCGATCC` has an E-score of -0.0906.
With `CTCCCAAG` the E-score was -0.204.
The E-score of `AAAACAAC` is reported as -0.179.
The E-score of `ACAGCATC` is reported as -0.156.
`ACGTAGCA` has an E-score of -0.00439.
For `AACAAACC`, the E-score was -0.0104.
The E-score of `GCGCCCCA` is reported as 0.2.
`AAAGGGTA` has an E-score of -0.0865.
`ATACACAT` has an E-score of -0.109.
For `AAGTTAAC`, the E-score was 0.0243.
The E-score of `CGTGCCCA` is reported as 0.027.
`TCATACGA` gave an E-score of -0.0431.
The E-score of `GGTCTCGA` is reported as -0.0429.
With `GTCCTGGA` the E-score was -0.037.
For `CGGACCAA`, the E-score was 0.119.
`AGCGACGC` has an E-score of 0.296.
With `ATGCTCCA` the E-score was -0.108.
For `AAACCGTA`, the E-score was 0.132.

Study 4
Target: Interferon regulatory factor 3, full length, phosphomimetic (IRF3, Homo sapiens, UniProt Q14653, residues 1-427, S386D/S396D/S398D/S402D/T404D/S405D)
Chain of UniProt Q14653 (whole entry, unmodified, looked up): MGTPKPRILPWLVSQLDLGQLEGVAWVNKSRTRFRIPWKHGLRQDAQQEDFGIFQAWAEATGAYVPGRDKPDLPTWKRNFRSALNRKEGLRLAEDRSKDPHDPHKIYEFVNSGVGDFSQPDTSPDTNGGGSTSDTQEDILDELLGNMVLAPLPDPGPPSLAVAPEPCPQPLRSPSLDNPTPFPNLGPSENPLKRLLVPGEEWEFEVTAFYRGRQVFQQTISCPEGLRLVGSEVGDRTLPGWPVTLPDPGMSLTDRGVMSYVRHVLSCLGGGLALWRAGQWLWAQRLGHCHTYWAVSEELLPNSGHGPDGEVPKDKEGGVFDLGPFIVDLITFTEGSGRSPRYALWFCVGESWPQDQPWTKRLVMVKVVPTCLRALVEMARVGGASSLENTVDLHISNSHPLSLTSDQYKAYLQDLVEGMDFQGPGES
Method: protein-binding microarray
Form: double-stranded DNA, one strand shown
Matrix: in vitro
Concentration: 2540 nM top
Setting: 60-bp whole probe
With: salmon DNA 0.4 mg/ml
Reference: random background probes
Reading: higher = stronger binding
Shared flanks, not repeated: GCCTAGCAC … GTCTTGATTCGCTTGACGCTGCTG
`GACGATATCGGAACTGGAGACGTGCTA` — result for “fitted relative affinity”: 1.36 z-score.
For `GACGATATCAGTATAGAGACGTGCTAG`, “fitted relative affinity” read 0.69 z-score.
For `TCATTCTTGGGACTCACACTGTGCTAG`, “fitted relative affinity” read 1.32 z-score.
`TTTGGTTTCCTTTCCCTTTAGTGCTAG` — result for “fitted relative affinity”: 11.3 z-score.
`TCACCTCTCTCTTTCCAACTGTGCTAG` — result for “fitted relative affinity”: 1.73 z-score.
`GTCGATATCAGACTGGAGACGTGCTAG` — result for “fitted relative affinity”: 0.984 z-score.
For `TCACCTCTTTCACTGGTACTGTGCTAG`, “fitted relative affinity” read 1.14 z-score.
For `GACGATATCATTATCGAGACGTGCTAG`, “fitted relative affinity” read 1.12 z-score.
`CTTATTCTCTACTTGTGTCTGTGCTAG`: “fitted relative affinity” 2.17 z-score.
Under “fitted relative affinity”, `TTAGGTTTTGGTTTCGGTTAGTGCTAG` is recorded as 7.98 z-score.
Under “fitted relative affinity”, `GACGGACTGCTATTGCTGACGTGCTAG` is recorded as -0.56 z-score.
Under “fitted relative affinity”, `TCATCTTTCTACATAGAACTGTGCTAG` is recorded as 1.67 z-score.
Under “fitted relative affinity”, `GACGATATCAGTTTCGGGACGTGCTAG` is recorded as 4.29 z-score.
`AGAGATTTCAGGAATTGAAAAGTGCTA`: “fitted relative affinity” -0.223 z-score.
`GACGGACTGGGGACTGGGTACGTGCTA` — result for “fitted relative affinity”: -0.899 z-score.
`GACGAACTGGGGATTGGAGACGTGCTA` — result for “fitted relative affinity”: -0.418 z-score.
Under “fitted relative affinity”, `GACGAACTGAGCTTCGAGACGTGCTAG` is recorded as -0.285 z-score.
Under “fitted relative affinity”, `TTAGGTCTCCTTATCGTTTAGTGCTAG` is recorded as 3.01 z-score.
`TCAGAACTGAGTCTCGATTAGTGCTAG` — result for “fitted relative affinity”: 0.0658 z-score.
Under “fitted relative affinity”, `AGTATGTTCCCTATTTAAGAGTGCTAG` is recorded as 3.07 z-score.
Under “fitted relative affinity”, `TTAGGTATCGACATTCGGTTAGTGCTA` is recorded as 0.752 z-score.
`TCAAGTGTTTTTCTCCTACTGTGCTAG` — result for “fitted relative affinity”: 0.299 z-score.

For quick reference, copied from above (study 1):
For `UAACCUUAACAAACGGAUCAGCUAUCUCUACAAACACUUUAACCGACAUGGGAAGUACAGAUAGGACGGGAAAUGUGUCACCCUGGAGAAGGGGAACAGGACUUAUCCCAGCAAGGAGAG`, the bound/input enrichment was 0.202 ratio.
For `UCUUGGGCAGAAGAGACAAACUCAAUGUUAAAAUCUCUAGGAGUGACCACGAAGUUUCAUAGUUUUCCAAAUGUUUACCAUGAGCUAAGCAAAACUGAGUUAGACAUAUUGAAGUUAUGG`, the bound/input enrichment was 0.291 ratio.
With `AAACUAACACUCUGUAAUUUUUCUUUUAUGUCUUAUUUUCCAAGAGUCCUCCAUUUUUUGCACCCCCUCACCGCCAACUCUGUUAUUCAGUAGAGAGAAGUGUACGGCUUUCUGAUUGGU` the bound/input enrichment was 0.951 ratio.
`GAGGCCCUGGCCAGCCCCCAGAUCGUAGCAUCGUUCACCUCUCAGUCUGUGGAUCAGUCUAAAGUGUUUGUGAAGGUGUUUACUGAAAUCGACCGGAUGCCCCAGCUCCUUGCAUACUAC` has a bound/input enrichment of 0.213 ratio.
With `AAUAAGCAUGUUAUGUAUAUUGUCUCGUGUUUUUAUUUUUACACCAUAUUGUAUUACACUUUUAGUAUUCACCAGCAUAAUCACUGUCUGCCUAAAAUAUGCAACUCUUUGCAUUACAAU` the bound/input enrichment was 3.32 ratio.
The bound/input enrichment of `GAAGACGGCGACUGUACAUUAUCUCACUUAGAGAAUAUGAAAAUCAUUUUGUUUUGAAGCUAGGUAUUAAACUGGAGUAGCUAUUACGUUCUUGAAAACUGGGGCAGGUGUGCCCUUGAC` is reported as 33.7 ratio.
`AGCCUCAAGUUCUCCAGCUCUGGGGACUUCCUGGUGGCUGGGGUAGGGCAGGAGCACAGGCUUGGCCGAUGGUGGAGAAUCAAAGAGGCUCGGAAUUCUGUCUGCAUCAUCCCACUCCGC` gave a bound/input enrichment of 0.132 ratio.
For `AUGCUCCGCCAGAUCAUCGGUCAGGCCAAGAAGCAUCCGAGCUUGAUCCCCCUCUUUGUAUUUAUUGGAACUGGAGCUACUGGAGCAACACUGUAUCUCUUGCGUCUGGCAUUGUUCAAU`, the bound/input enrichment was 0.121 ratio.
`UGCUUUAUGUGGUAGAAAGCAGAUUUAUGGUUUAAUACUUGUGUCUUCAUGGCACCUCGUUAGUUUCCACAGUAAAAUGAUAUUUGGUUGCAGGAAAGGCUCCUGCAUCUGGUACAUGGA` gave a bound/input enrichment of 0.633 ratio.
